Results from different studies.
Each line is one published result; not all experiments were run side by side. “And” joins repeats or separate records; there may be more than shown. Changes are numbered by the printed parent chain. ± gives the spread as reported.
P1: Jph3 N-terminal (Mus musculus); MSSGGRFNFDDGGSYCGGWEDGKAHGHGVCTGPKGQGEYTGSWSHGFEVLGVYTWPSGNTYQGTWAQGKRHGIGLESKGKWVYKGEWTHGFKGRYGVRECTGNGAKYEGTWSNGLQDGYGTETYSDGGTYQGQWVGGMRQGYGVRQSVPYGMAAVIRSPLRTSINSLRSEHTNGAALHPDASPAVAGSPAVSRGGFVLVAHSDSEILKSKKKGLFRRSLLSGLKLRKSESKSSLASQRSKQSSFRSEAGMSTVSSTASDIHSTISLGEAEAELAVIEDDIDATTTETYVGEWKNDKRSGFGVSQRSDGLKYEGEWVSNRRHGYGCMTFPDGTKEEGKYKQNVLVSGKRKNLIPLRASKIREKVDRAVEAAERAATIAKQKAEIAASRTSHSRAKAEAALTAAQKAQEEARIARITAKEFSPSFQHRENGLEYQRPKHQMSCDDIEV; partner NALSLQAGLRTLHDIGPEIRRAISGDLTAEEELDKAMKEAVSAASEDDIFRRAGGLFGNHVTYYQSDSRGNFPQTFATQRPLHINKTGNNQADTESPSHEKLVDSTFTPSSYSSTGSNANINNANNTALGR
B1: UGT1A4 (Homo sapiens, UniProt P22310); chain GKVLVVPTDGSPWLSMREALRELHARGHQAVVLTPEVNMHIKEEKFFTLTAYAVPWTQKEFDRVTLGYTQGFFETEHLLKRYSRSMAIMNNVSLALHRCCVELLHNEALIRHLNATSFDVVLTDPVNLCGAVLAKYLSIPAVFFWRYIPCDLDFKGTQCPNPSSYIPKLLTTNSDHMTFLQRVKNMLYPLALSYICHTFSAPYASLASELFQREVSVVDLVSYASVWLFRGDFVMDYPRPIMPNMVFIGGINCANGKPLSQEFEAYINASGEHGIVVFSLGSMVSEIPEKKAMAIADALGKIPQTVLWRYTGTRPSNLANNTILVKWLPQNDLLGHPMTRAFITHAGSHGVYESICNGVPMVMMPLFGDQMDNAKRMETKGAGVTLNVLEMTSEDLENALKAVINDKSYKENIMRLSSLHKDRPVEPLDLAVFWVEFVMRHKGAPHLRPAAHDLTWYQYHSLDVIGFLLAVVLTVAFITFKCCAYGYRKCLGKKGRVKKAHKSKTH
P2: Jph2 N-terminal (Mus musculus); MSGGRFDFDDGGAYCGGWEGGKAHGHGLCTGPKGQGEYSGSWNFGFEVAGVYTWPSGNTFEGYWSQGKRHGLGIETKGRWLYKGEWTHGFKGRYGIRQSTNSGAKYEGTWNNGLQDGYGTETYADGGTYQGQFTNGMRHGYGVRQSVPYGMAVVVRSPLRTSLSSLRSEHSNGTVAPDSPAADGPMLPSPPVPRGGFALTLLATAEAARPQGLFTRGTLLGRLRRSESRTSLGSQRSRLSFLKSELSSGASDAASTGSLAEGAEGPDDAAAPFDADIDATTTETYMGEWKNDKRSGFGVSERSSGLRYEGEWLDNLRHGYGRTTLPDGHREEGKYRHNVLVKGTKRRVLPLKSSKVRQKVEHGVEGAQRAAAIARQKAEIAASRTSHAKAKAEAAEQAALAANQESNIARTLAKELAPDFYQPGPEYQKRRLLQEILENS; partner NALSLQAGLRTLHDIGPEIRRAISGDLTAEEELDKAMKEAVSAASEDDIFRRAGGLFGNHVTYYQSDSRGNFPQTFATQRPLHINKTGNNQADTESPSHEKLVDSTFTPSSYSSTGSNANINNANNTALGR
Sequence of UniProt Q92887 (whole entry, looked up): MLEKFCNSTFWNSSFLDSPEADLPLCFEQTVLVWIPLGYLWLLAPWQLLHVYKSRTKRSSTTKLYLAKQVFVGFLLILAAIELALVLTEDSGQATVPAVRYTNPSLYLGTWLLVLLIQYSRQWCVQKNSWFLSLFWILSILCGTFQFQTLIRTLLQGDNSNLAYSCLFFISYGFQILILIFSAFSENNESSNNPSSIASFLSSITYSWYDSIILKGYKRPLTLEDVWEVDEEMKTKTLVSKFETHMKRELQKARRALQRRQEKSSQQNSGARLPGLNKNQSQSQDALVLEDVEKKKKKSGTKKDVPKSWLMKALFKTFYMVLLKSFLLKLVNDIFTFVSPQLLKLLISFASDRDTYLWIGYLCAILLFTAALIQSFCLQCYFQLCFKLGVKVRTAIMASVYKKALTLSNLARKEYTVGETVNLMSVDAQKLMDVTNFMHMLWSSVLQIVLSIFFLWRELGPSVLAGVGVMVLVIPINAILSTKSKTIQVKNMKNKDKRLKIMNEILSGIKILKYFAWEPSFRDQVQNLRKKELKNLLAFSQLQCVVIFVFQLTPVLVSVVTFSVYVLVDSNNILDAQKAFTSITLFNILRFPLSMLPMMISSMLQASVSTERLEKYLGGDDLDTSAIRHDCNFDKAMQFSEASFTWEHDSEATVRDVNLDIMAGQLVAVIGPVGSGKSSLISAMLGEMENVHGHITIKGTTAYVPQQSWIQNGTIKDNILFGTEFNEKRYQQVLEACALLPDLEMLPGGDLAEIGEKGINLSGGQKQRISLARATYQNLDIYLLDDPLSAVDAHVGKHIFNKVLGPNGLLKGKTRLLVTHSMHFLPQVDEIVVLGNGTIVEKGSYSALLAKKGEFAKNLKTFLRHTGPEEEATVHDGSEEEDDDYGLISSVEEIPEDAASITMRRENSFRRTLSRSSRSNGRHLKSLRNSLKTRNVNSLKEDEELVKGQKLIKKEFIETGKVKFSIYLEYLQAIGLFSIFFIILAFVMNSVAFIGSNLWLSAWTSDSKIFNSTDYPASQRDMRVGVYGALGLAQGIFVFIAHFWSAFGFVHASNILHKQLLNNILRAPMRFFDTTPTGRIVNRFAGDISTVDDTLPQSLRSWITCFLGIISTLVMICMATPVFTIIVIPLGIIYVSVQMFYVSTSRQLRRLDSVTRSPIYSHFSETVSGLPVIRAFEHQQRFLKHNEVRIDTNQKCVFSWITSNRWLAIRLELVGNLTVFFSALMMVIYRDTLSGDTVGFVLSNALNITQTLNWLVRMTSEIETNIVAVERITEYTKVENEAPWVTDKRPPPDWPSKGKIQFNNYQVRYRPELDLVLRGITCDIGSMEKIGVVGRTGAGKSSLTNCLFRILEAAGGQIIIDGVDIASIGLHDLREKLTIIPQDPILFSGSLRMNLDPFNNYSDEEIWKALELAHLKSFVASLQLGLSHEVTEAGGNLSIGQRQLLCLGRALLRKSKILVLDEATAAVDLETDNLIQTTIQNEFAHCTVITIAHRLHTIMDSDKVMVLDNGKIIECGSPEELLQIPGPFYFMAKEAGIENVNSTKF
Sequence of UniProt Q9Y6L6 (whole entry, looked up): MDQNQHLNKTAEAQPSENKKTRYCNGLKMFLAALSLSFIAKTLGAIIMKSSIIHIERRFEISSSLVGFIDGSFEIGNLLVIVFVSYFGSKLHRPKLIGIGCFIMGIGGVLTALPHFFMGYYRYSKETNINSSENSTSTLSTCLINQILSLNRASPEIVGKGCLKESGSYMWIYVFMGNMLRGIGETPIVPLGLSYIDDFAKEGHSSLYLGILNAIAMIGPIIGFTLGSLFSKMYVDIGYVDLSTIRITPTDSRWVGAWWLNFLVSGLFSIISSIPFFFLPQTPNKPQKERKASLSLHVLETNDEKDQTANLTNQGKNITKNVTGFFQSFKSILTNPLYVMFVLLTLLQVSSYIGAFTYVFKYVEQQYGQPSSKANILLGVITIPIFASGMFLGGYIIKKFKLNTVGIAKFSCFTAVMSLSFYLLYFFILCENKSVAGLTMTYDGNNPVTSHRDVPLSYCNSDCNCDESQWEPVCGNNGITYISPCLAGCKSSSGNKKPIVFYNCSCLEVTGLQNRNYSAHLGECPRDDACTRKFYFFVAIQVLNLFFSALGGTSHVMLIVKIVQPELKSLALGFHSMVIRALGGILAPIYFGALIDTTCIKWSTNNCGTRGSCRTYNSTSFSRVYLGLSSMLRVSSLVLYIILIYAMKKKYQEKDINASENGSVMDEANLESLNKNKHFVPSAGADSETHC
Sequence of UniProt O15438 (whole entry, looked up): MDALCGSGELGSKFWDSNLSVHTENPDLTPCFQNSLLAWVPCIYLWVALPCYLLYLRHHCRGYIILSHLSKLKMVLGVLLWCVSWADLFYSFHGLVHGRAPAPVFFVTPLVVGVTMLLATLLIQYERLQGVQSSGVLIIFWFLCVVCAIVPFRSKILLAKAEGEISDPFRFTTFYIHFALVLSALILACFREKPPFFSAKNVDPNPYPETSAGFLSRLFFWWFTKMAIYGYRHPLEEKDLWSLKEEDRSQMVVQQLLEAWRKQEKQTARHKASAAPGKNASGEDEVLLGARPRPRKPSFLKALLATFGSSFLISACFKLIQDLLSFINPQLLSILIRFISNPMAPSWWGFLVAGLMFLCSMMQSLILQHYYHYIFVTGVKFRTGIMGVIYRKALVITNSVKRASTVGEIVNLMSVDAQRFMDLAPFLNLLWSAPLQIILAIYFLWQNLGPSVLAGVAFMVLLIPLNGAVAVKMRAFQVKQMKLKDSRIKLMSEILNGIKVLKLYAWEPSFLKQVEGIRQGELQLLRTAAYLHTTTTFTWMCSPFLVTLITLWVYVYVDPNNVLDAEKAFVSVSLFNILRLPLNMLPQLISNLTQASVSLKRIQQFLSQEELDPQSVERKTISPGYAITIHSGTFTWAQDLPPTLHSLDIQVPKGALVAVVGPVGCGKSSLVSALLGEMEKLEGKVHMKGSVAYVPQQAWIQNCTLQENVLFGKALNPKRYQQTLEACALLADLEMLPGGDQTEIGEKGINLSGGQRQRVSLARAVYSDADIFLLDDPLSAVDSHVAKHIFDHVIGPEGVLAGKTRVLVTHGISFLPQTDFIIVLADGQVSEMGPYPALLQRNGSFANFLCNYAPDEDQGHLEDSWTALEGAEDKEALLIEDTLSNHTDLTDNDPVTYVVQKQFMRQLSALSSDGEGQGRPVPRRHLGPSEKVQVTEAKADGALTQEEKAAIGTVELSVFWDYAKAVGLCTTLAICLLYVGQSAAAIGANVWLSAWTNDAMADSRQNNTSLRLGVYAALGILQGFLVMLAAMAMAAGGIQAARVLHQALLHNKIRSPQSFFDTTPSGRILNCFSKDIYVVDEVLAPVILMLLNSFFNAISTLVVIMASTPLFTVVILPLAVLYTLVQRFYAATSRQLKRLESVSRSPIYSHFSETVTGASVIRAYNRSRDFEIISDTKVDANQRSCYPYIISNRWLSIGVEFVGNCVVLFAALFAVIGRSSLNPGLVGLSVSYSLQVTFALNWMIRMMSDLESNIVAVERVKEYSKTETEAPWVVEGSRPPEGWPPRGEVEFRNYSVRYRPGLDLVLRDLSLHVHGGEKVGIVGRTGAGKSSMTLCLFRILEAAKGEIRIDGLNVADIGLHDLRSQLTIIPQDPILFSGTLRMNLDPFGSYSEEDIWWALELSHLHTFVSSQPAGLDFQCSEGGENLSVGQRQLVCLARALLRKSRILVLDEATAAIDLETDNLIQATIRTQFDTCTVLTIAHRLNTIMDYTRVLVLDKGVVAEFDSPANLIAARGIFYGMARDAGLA

P1 S166F — relative binding (CaV1.2 (Mus musculus); ITC; reference: unchanged protein): 3.35
N#C[C@@H]1CC(F)(F)CN1C(=O)CNC(=O)c1ccnc2ccc(OCCCN3CCN(C(=O)CN4CCN(CC(N)=O)CCN(CC(N)=O)CCN(CC(N)=O)CC4)CC3)cc12 — logD (shake flask; n-octanol/PBS; pH 7.4, 203Pb-labelled): -2.95 ± 0.1
CCCC[C@H](NC(=O)CCCCCCCNC(=O)CN1CCN(CC(=O)O)CCN(CC(=O)O)CC1)C(=O)N[C@H]1CC(=O)NCCCC[C@@H](C(N)=O)NC(=O)[C@H](Cc2c[nH]c3ccccc23)NC(=O)[C@H](CCCNC(=N)N)NC(=O)[C@@H](Cc2ccccc2)NC(=O)[C@H](Cc2c[nH]cn2)NC1=O [technetium-99m labelled] — tissue uptake (C57 mouse, muscle; intravenous, 0.037 MBq, 0.5 h): 0.23 ± 0.15 %ID/g
BICD2-miniTurboID C-terminus R747C (Homo sapiens) — relative binding (CSPP1 (Homo sapiens); proximity biotinylation, western blot; 500 µM, 40 minutes, read off a plot; reference: unchanged protein, higher = more binding): 2.4
SLCO1B1 (Homo sapiens, UniProt Q9Y6L6) — Vmax (O=C(c1ccc(OCCN2CCCCC2)cc1)c1c(-c2ccc(O)cc2)sc2cc(O[C@@H]3O[C@H](C(=O)O)[C@@H](O)[C@H](O)[C@H]3O)ccc12; steady-state kinetics; HEK293 cells; pH 7.4, 37 °C): 1.26e-05 µmol/min/mg
CCCC[C@H](NC(=O)COCCOCCNC(=O)CN1CCN(CC(=O)O)CCN(CC(=O)O)CC1)C(=O)N[C@H]1CC(=O)NCCCC[C@@H](C(N)=O)NC(=O)[C@H](Cc2c[nH]c3ccccc23)NC(=O)[C@H](CCCNC(=N)N)NC(=O)[C@@H](Cc2ccccc2)NC(=O)[C@H](Cc2c[nH]cn2)NC1=O [technetium-99m labelled] — tissue uptake (C57 mouse, liver; intravenous, 0.037 MBq, 4 h): 0.25 ± 0.03 %ID/g
CC(C)C[C@H](NC(=O)[C@@H](CCCCNC(=O)[C@@H](Cc1ccccc1)NC(=O)CCCCCNC(=O)CN1CCN(CC(=O)O)CCN(CC(=O)O)CCN(CC(=O)O)CC1)NC(=O)[C@H](Cc1ccc(O)cc1)NC(=O)[C@H](CO)NC(=O)[C@H](Cc1c[nH]c2ccccc12)NC(=O)[C@H](Cc1c[nH]cn1)NC(=O)[C@@H]1CCC(=O)N1)C(=O)N[C@@H](CCCNC(=N)N)C(=O)N1CCC[C@H]1C(=O)NCC(N)=O [indium-111 labelled] — tissue uptake (female athymic nude mice, muscle; intravenous, 0.037 MBq, 1 h): 0.04 ± 0.03 %ID/g
BICD2-miniTurboID C-terminus N188T (Homo sapiens) — relative binding (CSPP1 (Homo sapiens); proximity biotinylation, western blot; 500 µM, 40 minutes, read off a plot; reference: unchanged protein, higher = more binding): 2
B1 (UGT1A4) — Vmax (CCCCN1C(=O)c2cccc3c(N4CCN(C)CC4)ccc(c23)C1=O; steady-state kinetics): 9e-05 µmol/min/mg
ABCC3 (Homo sapiens, UniProt O15438) — Vmax (O=C(c1ccc(OCCN2CCCCC2)cc1)c1c(-c2ccc(O[C@@H]3O[C@H](C(=O)O)[C@@H](O)[C@H](O)[C@H]3O)cc2)sc2cc(O)ccc12; steady-state kinetics; Sf9 vesicles; pH 7, 37 °C, not purified, with: ATP): 0.000213 µmol/min/mg
P2 L163E S165F — relative binding (CaV1.2 (Mus musculus); ITC; reference: unchanged protein): 2.65
ABCC2 (Homo sapiens, UniProt Q92887) — Vmax (O=C(c1ccc(OCCN2CCCCC2)cc1)c1c(-c2ccc(O)cc2)sc2cc(O[C@@H]3O[C@H](C(=O)O)[C@@H](O)[C@H](O)[C@H]3O)ccc12; steady-state kinetics; Sf9 vesicles; pH 7, 37 °C, not purified, with: ATP): 0.00148 µmol/min/mg
CC(C)C[C@H](NC(=O)[C@H](Cc1ccc(O)cc1)NC(=O)[C@@H](CCCNC(=N)N)NC(=O)[C@@H](CO)NC(=O)[C@H](Cc1ccccc1)NC(=O)[C@H](CC1CCCCC1)NC(=O)[C@H](CC(=O)O)NC(=O)CN1CCN(CC(=O)O)CCN(CC(=O)O)CCN(CC(=O)O)CC1)C(=O)N[C@@H](Cc1c[nH]c2ccccc12)C(=O)N[C@@H](CO)C(=O)O [copper-64 labelled] — activity concentration (human, spleen; concentration not given, 3 h): 1520 Bq/mL and 1960 Bq/mL and 1600 Bq/mL and 1690 Bq/mL and 1580 Bq/mL and 1190 Bq/mL
N#C[C@@H]1CC(F)(F)CN1C(=O)CNC(=O)c1ccnc2ccc(OCCCN3CCN(C(=S)Nc4ccc(C[C@H]5CN(Cc6ccccn6)CCN(Cc6ccccn6)CCN(Cc6ccccn6)CCN5Cc5ccccn5)cc4)CC3)cc12 — logD (shake flask; n-octanol/PBS; pH 7.4, 203Pb-labelled): -0.76 ± 0.03

For quick reference, copied from above:
ABCC3 (Homo sapiens, UniProt O15438) — Vmax (O=C(c1ccc(OCCN2CCCCC2)cc1)c1c(-c2ccc(O[C@@H]3O[C@H](C(=O)O)[C@@H](O)[C@H](O)[C@H]3O)cc2)sc2cc(O)ccc12; steady-state kinetics; Sf9 vesicles; pH 7, 37 °C, not purified, with: ATP): 0.000213 µmol/min/mg
